Measured values from different studies.
“And” joins repeats or separate records; there may be more than shown. ± marks the error that the study gave.

Under “organ-to-body weight ratio”, `O=C1NC2(CC2)COc2ncc(F)cc2[C@H]2COCCN2c2ccn3ncc1c3n2` is recorded as 0.736 ± 0.073% (Sprague-Dawley rat, male, testes; oral, 10 mg/kg/day, 4 weeks, end of treatment).
With `CC(CCC(=O)NCC(=O)O)C1CCC2C3CCC4CC(OC5OC(C(=O)O)C(O)C(O)C5O)CCC4(C)C3CC(O)C12C` (stereo not drawn) the plasma concentration was 79 ng/mL (human men; dose not given, SLCO1B1 *5/*35).
`C[C@H](NCc1ccc(-c2ccc(C(F)(F)F)cc2)cc1)C(N)=O` has a compound remaining of 61% (metabolic stability; dog, liver microsomes; 1 µM, 30 min, pH 7.4).
`N#[11C]c1ccc(-c2csc(NN=C3CCCC3)n2)cc1` — result for “uptake in testis”: 1.07 ± 0.25 %ID/g (C57BL/6 mouse, male; intravenous, 3 MBq, 30 min).
For `C=C/C=C/C[C@@H](C)[C@@H](O)[C@H]1C(=O)N[C@@H](CC)C(=O)N(C)CC(=O)N(C)[C@@H](CC(C)C)C(=O)N[C@@H](C(C)C)C(=O)N(C)[C@@H](CC(C)C)C(=O)N[C@@H](C)C(=O)N[C@H](C)C(=O)N(C)[C@@H](CC(C)C)C(=O)N(C)[C@@H](CC(C)C)C(=O)N(C)[C@@H](C(C)C)C(=O)N1C`, “fractional magnesium excretion” read “no effect” (male Wistar Kyoto rat; intraperitoneal, 0.5 mg/kg/day, day 18; reference: vehicle).
For `C/C(=N\OCCCN1CCCCC1)c1ccc(C(F)(F)F)cc1`, the AUC(0-t) was 3280 ± 988 ng·h/mL (mouse, plasma; oral, 50 mg/kg twice daily, day 7).
With `CCCCCCCCCCCCCCCC(=O)N[C@@H](CCC(=O)NCCOCCOCCC(=O)NCCOCCOCCC(=O)NCCCC[C@H](NC(=O)[C@H](CC(=O)O)NC(=O)[C@H](CC(C)C)NC(=O)[C@H](Cc1ccc(O)cc1)NC(=O)[C@H](CCCCN)NC(=O)[C@H](CO)NC(=O)[C@H](Cc1ccc(O)cc1)NC(=O)[C@H](CC(=O)O)NC(=O)[C@H](CO)NC(=O)[C@@H](NC(=O)[C@H](Cc1ccccc1)NC(=O)[C@@H](NC(=O)CNC(=O)[C@H](CCC(N)=O)NC(=O)[C@@H](CO)NC(=O)[C@@H](N)Cc1c[nH]cn1)[C@@H](C)O)[C@@H](C)O)C(=O)N[C@@H](CCCNC(=N)N)C(=O)N[C@@H](CCCNC(=N)N)C(=O)N[C@@H](C)C(=O)N[C@@H](CCC(N)=O)C(=O)N[C@@H](CC(=O)O)C(=O)N[C@@H](Cc1ccccc1)C(=O)N[C@H](C(=O)N[C@@H](CCC(N)=O)C(=O)N[C@@H](Cc1c[nH]c2ccccc12)C(=O)N[C@@H](CC(C)C)C(=O)N[C@@H](CC(C)C)C(=O)N[C@@H](CC(N)=O)C(=O)N[C@H](C(=O)NCC(=O)NCC(=O)N1CCC[C@H]1C(=O)N[C@@H](CO)C(=O)N[C@@H](CO)C(=O)NCC(=O)N[C@@H](C)C(=O)N1CCC[C@H]1C(=O)N1CCC[C@H]1C(=O)N1CCC[C@H]1C(=O)N[C@@H](CO)C(N)=O)[C@@H](C)O)C(C)C)C(=O)O` the AUC(0-t) was 841 ng·h/mL (female rhesus monkeys; 60 µg/kg, day 28).
With `CC(=O)N[C@H](C(=O)N[C@@H](CCCC(=O)OC(C)(C)C)C(=O)N[C@@H](CCC1CCCCC1)C(=O)N[C@@H](CC(=O)O)C(=O)COC(=O)c1c(C)cccc1C)C(C)(C)C` the AST was 316 U/L and 450 U/L and 390 U/L and 328 U/L and 590 U/L and 1320 U/L (C57BL/6N mouse, serum; concentration not given, compound alone).
The Cmax of `Cn1nc(NS(C)(=O)=O)c2c(Cl)ccc(-n3c([C@H](Cc4cc(F)cc(F)c4)NC(=O)Cn4nc(C(F)F)c5c4C(F)(F)[C@@H]4C[C@H]54)nc4nc(OCCC(F)(F)F)ccc4c3=O)c21` is reported as 26.9 ng/mL (human, plasma; oral, 25 mg single dose, powder in bottle, geometric mean).
`CCCCC[C@@H]1NC(=O)[C@@H](C)N(C)C(=O)[C@H](CCCCC)N(C)C(=O)[C@@H](C)N(C)C(=O)[C@H](CCCCC)NC(=O)[C@@H](C)N(C)C(=O)[C@H](CCCCC)N(C)C(=O)[C@@H](C)N(C)C1=O` gave a log Papp of -5.4 ± 0.05 (PAMPA, HPLC-UV; 500 µM, pH 7.4).
`CN1Cc2cc(Cl)ccc2-n2c(nnc2C2CCN(c3cccc([18F])n3)CC2)C1` has a tissue uptake of 7.2 ± 3.35 %ID/g (C57BL/6 mouse male, lung; intravenous, dose not given, 5 min, with: blocking agent 10 mg/kg).
`CSCC[C@H](N)C(=O)N[C@@H](C)C(=O)N[C@@H](CCCNC(=N)N)C(=O)N[C@@H](CCCNC(=N)N)C(=O)N[C@@H](CC(=O)O)C(=O)N[C@@H](CCCCN)C(=O)N[C@H](C(=O)N[C@@H](CC(=O)O)C(=O)N[C@@H](Cc1ccccc1)C(=O)N[C@@H](C)C(=O)N[C@@H](CCCNC(=N)N)C(=O)N[C@@H](CCCNC(=N)N)C(=O)N[C@@H](CCCNC(=N)N)C(=O)N[C@@H](CCCNC(=N)N)C(=O)NCCCCCC(=O)NCCCCC(NC(=O)CCCCCNC(=O)[C@H](CCCNC(=N)N)NC(=O)[C@H](CCCNC(=N)N)NC(=O)[C@H](CCCNC(=N)N)NC(=O)[C@H](CCCNC(=N)N)NC(=O)[C@H](C)NC(=O)[C@H](Cc1ccccc1)NC(=O)[C@H](CC(=O)O)NC(=O)[C@@H](NC(=O)[C@H](CCCCN)NC(=O)[C@H](CC(=O)O)NC(=O)[C@H](CCCNC(=N)N)NC(=O)[C@H](CCCNC(=N)N)NC(=O)[C@H](C)NC(=O)[C@@H](N)CCSC)[C@@H](C)O)C(=O)NCCCCC(NC(=O)C(CCCCNC(=O)CCCCCNC(=O)[C@H](CCCNC(=N)N)NC(=O)[C@H](CCCNC(=N)N)NC(=O)[C@H](CCCNC(=N)N)NC(=O)[C@H](CCCNC(=N)N)NC(=O)[C@H](C)NC(=O)[C@H](Cc1ccccc1)NC(=O)[C@H](CC(=O)O)NC(=O)[C@@H](NC(=O)[C@H](CCCCN)NC(=O)[C@H](CC(=O)O)NC(=O)[C@H](CCCNC(=N)N)NC(=O)[C@H](CCCNC(=N)N)NC(=O)[C@H](C)NC(=O)[C@@H](N)CCSC)[C@@H](C)O)NC(=O)CCCCCNC(=O)[C@H](CCCNC(=N)N)NC(=O)[C@H](CCCNC(=N)N)NC(=O)[C@H](CCCNC(=N)N)NC(=O)[C@H](CCCNC(=N)N)NC(=O)[C@H](C)NC(=O)[C@H](Cc1ccccc1)NC(=O)[C@H](CC(=O)O)NC(=O)[C@@H](NC(=O)[C@H](CCCCN)NC(=O)[C@H](CC(=O)O)NC(=O)[C@H](CCCNC(=N)N)NC(=O)[C@H](CCCNC(=N)N)NC(=O)[C@H](C)NC(=O)[C@@H](N)CCSC)[C@@H](C)O)C(N)=O)[C@@H](C)O` (stereo partly drawn) has a tissue distribution of 1.21% and 1.08% and 1.75% (C57BL/6 mouse female, femur; dose not given, 3 h; reference: total).
With `CC[C@H](C)[C@H](NC(=O)[C@H](CCCCN)NC(=O)CNC(=O)[C@H](CC(C)C)NC(=O)[C@H](Cc1ccccc1)NC(=O)[C@H](CCCCN)NC(=O)[C@H](CO)NC(=O)[C@H](Cc1ccccc1)NC(=O)[C@H](Cc1c[nH]c2ccccc12)NC(=O)[C@H](CCC(N)=O)NC(=O)[C@@H](NC(=O)[C@H](Cc1ccccc1)NC(=O)CCCCCNC(=O)CN1CCN(CC(=O)O)CCN(CC(=O)O)CCN(CC(=O)O)CC1)C(C)C)C(=O)N[C@@H](CCC(=O)O)C(=O)N1CCC[C@H]1C(=O)N[C@@H](CC(=O)O)C(=O)N[C@H](C(=O)N[C@@H](CO)C(=O)N[C@@H](CCC(N)=O)C(=O)N[C@H](C(=O)N[C@@H](CCC(N)=O)C(=O)N[C@@H](CC(=O)O)C(=O)N1CCC[C@H]1C(=O)N[C@@H](CC(N)=O)C(=O)N[C@@H](CC(=O)O)C(=O)N[C@@H](CCC(N)=O)C(=O)N[C@@H](Cc1ccc(O)cc1)C(=O)N[C@@H](CCC(=O)O)C(=O)N1CCC[C@H]1C(=O)N[C@@H](Cc1ccccc1)C(=O)O)C(C)C)C(C)C` [copper-64 labelled] the SUVmean was 0.49 SUV (dynamic PET; mouse, CT26 tumour, untreated, tumour; intravenous, 100 µCi/mouse, 50 s).
`CC(C)[C@@H]1NC(=O)CNC(=O)[C@H](CC(N)=O)NC(=O)[C@H](CCCNC(=N)N)NC(=O)[C@H](Cc2ccc(O)cc2)NC(=O)[C@H](C(C)C)NC(=O)[C@@H](NC(=O)[C@@H](NC(=O)[C@H](CC(N)=O)NC(=O)[C@H](Cc2c[nH]c3ccccc23)NC(=O)[C@H](C)NC(=O)[C@H](Cc2ccccc2)NC(=O)CNC(=O)[C@H](CCCCN)NC(=O)[C@H](Cc2ccccc2)NC(=O)[C@H](Cc2ccccc2)NC(=O)[C@H](CCCCN)NC(=O)OCC2c3ccccc3-c3ccccc32)C(C)C)CSSC[C@@H](C(=O)N[C@@H](Cc2c[nH]cn2)C(=O)N[C@@H](CCCNC(=N)N)C(=O)N[C@@H](CCCNC(=N)N)C(=O)N[C@@H](C)C(=O)N[C@@H](CC(N)=O)C(N)=O)NC(=O)[C@H](C(C)C)NC(=O)[C@H](CCCNC(=N)N)NC1=O` has an AST of 26 ± 2.08 IU/L (ICR mouse, blood; intramammary, 5 mg/kg, day 5, 3 d dosing).
With `CC(C)[C@H](NC(=O)[C@@H](NC(=O)[C@H](CCCNC(=N)N)NC(=O)[C@H](CCCNC(=N)N)NC(=O)[C@H](CCCNC(=N)N)NC(=O)[C@H](CCC(N)=O)NC(=O)[C@H](CCCNC(=N)N)NC(=O)[C@H](CCCNC(=N)N)NC(=O)[C@H](CCCCN)NC(=O)[C@H](CCCCN)NC(=O)[C@H](CCCNC(=N)N)NC(=O)CN)[C@@H](C)O)C(=O)N[C@H](C(=O)N[C@@H](CO)C(=O)N1CCC[C@H]1C(=O)O)[C@@H](C)O` the organ weight was 0.342 ± 0.029 g (ICR mice, female, lung; intranasal, 10 mg/kg daily, 4 weeks).
With `CC(C)[C@H](NC(=O)[C@H](Cc1c[nH]c2ccccc12)NC(=O)[C@H](CCCNC(=N)N)NC(=O)[C@H](CCCNC(=N)N)NC(=O)[C@@H](NC(=O)[C@@H](NC(=O)[C@H](CCCNC(=N)N)NC(=O)[C@@H](NC(=O)[C@@H](NC(=O)[C@H](CCCNC(=N)N)NC(=O)[C@H](CCCNC(=N)N)NC(=O)[C@@H](NC(=O)[C@H](Cc1c[nH]c2ccccc12)NC(=O)[C@H](CCCNC(=N)N)NC(=O)[C@H](CCCNC(=N)N)NC(=O)[C@@H](NC(=O)[C@H](CCCNC(=N)N)NC(=O)[C@H](CCCNC(=N)N)NC(=O)[C@@H](NC(=O)[C@H](Cc1c[nH]c2ccccc12)NC(=O)[C@H](CCCNC(=N)N)NC(=O)[C@@H](N)CCCNC(=N)N)C(C)C)C(C)C)C(C)C)C(C)C)C(C)C)C(C)C)C(C)C)C(=O)N[C@@H](CCCNC(=N)N)C(=O)N[C@@H](CCCNC(=N)N)C(=O)O` the MTD was 15 mg/kg (mice; intravenous, 14 days observation, 5 daily doses).
With `CCn1ccc(-c2cc(-c3cnn(C)c3)cc([C@@H](C)NC(=O)c3cc(OCCN(C)C)ccc3C)c2)n1` the t1/2 was 2.76 h (C57BL/6J mice, male, plasma; iv, 10 mg/kg).
`C#Cc1c(F)ccc2cc(O)cc(-c3ncc4c(N5CC6CCC(C5)N6C(=O)OC(C)OC(=O)CCCCCCC)nc(OC[C@@]56CCCN5C[C@H](F)C6)nc4c3F)c12` (stereo partly drawn) has a t1/2 of 0.0808 h (measured: prodrug; mouse whole blood; 1 µM).

Excerpt of the above:
`N#[11C]c1ccc(-c2csc(NN=C3CCCC3)n2)cc1` — result for “uptake in testis”: 1.07 ± 0.25 %ID/g (C57BL/6 mouse, male; intravenous, 3 MBq, 30 min).
For `C=C/C=C/C[C@@H](C)[C@@H](O)[C@H]1C(=O)N[C@@H](CC)C(=O)N(C)CC(=O)N(C)[C@@H](CC(C)C)C(=O)N[C@@H](C(C)C)C(=O)N(C)[C@@H](CC(C)C)C(=O)N[C@@H](C)C(=O)N[C@H](C)C(=O)N(C)[C@@H](CC(C)C)C(=O)N(C)[C@@H](CC(C)C)C(=O)N(C)[C@@H](C(C)C)C(=O)N1C`, “fractional magnesium excretion” read “no effect” (male Wistar Kyoto rat; intraperitoneal, 0.5 mg/kg/day, day 18; reference: vehicle).
For `C/C(=N\OCCCN1CCCCC1)c1ccc(C(F)(F)F)cc1`, the AUC(0-t) was 3280 ± 988 ng·h/mL (mouse, plasma; oral, 50 mg/kg twice daily, day 7).
